Measurements from different studies.
Parts stem from different laboratories: compare values within a part only.

Block 1
Target: Sal-like protein 4, full length isoform B (SALL4, Homo sapiens, UniProt Q9UJQ4-2, residues 1-616)
Technique: universal PBM
Form: double-stranded DNA, one strand shown
Medium: in vitro
Tested at: not given
Setting: 8-mer, flanks averaged, mean of replicates
Direction: higher = stronger binding
Residues (chain): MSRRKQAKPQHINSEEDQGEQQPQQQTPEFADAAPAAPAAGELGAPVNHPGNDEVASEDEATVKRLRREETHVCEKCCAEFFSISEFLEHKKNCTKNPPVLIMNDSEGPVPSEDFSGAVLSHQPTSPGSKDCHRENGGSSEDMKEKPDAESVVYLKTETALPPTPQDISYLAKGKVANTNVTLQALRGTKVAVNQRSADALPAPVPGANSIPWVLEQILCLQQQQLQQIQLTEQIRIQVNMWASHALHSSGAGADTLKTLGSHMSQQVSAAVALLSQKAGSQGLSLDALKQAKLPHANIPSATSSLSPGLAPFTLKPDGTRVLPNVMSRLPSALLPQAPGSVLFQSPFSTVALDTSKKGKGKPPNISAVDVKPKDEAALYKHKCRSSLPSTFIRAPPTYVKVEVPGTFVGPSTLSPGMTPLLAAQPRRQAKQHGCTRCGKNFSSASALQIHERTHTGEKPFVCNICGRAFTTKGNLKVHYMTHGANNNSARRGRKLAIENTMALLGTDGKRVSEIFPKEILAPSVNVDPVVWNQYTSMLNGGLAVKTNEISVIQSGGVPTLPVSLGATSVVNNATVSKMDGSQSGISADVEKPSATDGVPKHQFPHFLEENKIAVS
`GGTAGCGA` has an E-score of -0.0834.
`CAGGCCTC` gave an E-score of -0.32.
`GTCATTAA` has an E-score of 0.188.
`CAGCCGTA` has an E-score of -0.203.
The E-score of `AGTTCGTC` is reported as -0.121.
`CATGACAA` has an E-score of 0.0147.
`TGTCCACA` has an E-score of 0.0872.
`ATTGACCA` gave an E-score of 0.0911.
`ATCATAGC` gave an E-score of 0.153.
The E-score of `CCATGAGA` is reported as -0.00226.
`ACGTCGCT` has an E-score of -0.13.
The E-score of `CCCTTAGG` is reported as -0.158.
For `TCATAACA`, the E-score was 0.387.
For `GTTCGTCA`, the E-score was -0.0676.
`ATTGTTGG` has an E-score of 0.134.
The E-score of `ACTAAAAC` is reported as 0.0949.
`ACACTCAC` has an E-score of 0.0129.
`CATCATAG` has an E-score of 0.103.
With `CAGATTTC` the E-score was -0.00164.
With `CGCAAATC` the E-score was -0.0143.
`GTAAACTA` has an E-score of 0.203.
The E-score of `GAGTCACA` is reported as -0.128.

Block 2
Target: Prothrombin, mature alpha-thrombin (F2, Homo sapiens, UniProt P00734)
Technique: aptamer microarray, sandwich
Form: DNA with 2'F-ANA
Medium: in vitro
Tested at: 200 nM
Setting: whole 15-mer aptamer, many near background
With: Cy3 exosite-II aptamer, 400 nM
Direction: higher = stronger binding
Oligonucleotide: GGTTGGTGTGGTTGG
`2'F-ANA at 2 11 13 15`: “mean fluorescence intensity” 278 a.u.
`2'F-ANA at 2 3 7 10 11 14 15`: “mean fluorescence intensity” 290 a.u.
`2'F-ANA at 1 3 4 6 7 9 12 15` — result for “mean fluorescence intensity”: 324 a.u.
Under “mean fluorescence intensity”, `2'F-ANA at 3 4 7 8 9 13 15` is recorded as 530 a.u.
`2'F-ANA at 1 2 3 4 8 9 10 11 15`: “mean fluorescence intensity” 55.3 a.u.
For `2'F-ANA at 1 3 8 9 12 14`, “mean fluorescence intensity” read 147 a.u.
Under “mean fluorescence intensity”, `2'F-ANA at 1 2 4 5 7 8 9 10 13` is recorded as 64.1 a.u.
`2'F-ANA at 3 4 6 8 10 13 14`: “mean fluorescence intensity” 160 a.u.
For `2'F-ANA at 2 3 4 8`, “mean fluorescence intensity” read 787 a.u.
`2'F-ANA at 3 4 6 7 8 11 14` — result for “mean fluorescence intensity”: 326 a.u.
For `2'F-ANA at 1 2 3 7 8 9 11 13 14 15`, “mean fluorescence intensity” read 76.4 a.u.
Under “mean fluorescence intensity”, `2'F-ANA at 3 4 12 14` is recorded as 430 a.u.
`2'F-ANA at 3 4 5 8 9 10 12` — result for “mean fluorescence intensity”: 59.5 a.u.
`2'F-ANA at 1 2 6 7 9 15`: “mean fluorescence intensity” 140 a.u.
Under “mean fluorescence intensity”, `2'F-ANA at 2 7 9 10 11 13` is recorded as 119 a.u.
Under “mean fluorescence intensity”, `2'F-ANA at 4 7 8 9 12 13 15` is recorded as 395 a.u.
For `2'F-ANA at 3 4 5 8 9 10 11 14 15`, “mean fluorescence intensity” read 345 a.u.
For `2'F-ANA at 1 3 4 10 12 13 14 15`, “mean fluorescence intensity” read 72.2 a.u.
`2'F-ANA at 6 11 13 14` — result for “mean fluorescence intensity”: 159 a.u.
`2'F-ANA at 1 2 3 4 6 11 14 15` — result for “mean fluorescence intensity”: 57.1 a.u.
For `2'F-ANA at 1 5 9 12 13`, “mean fluorescence intensity” read 67.6 a.u.
For `2'F-ANA at 2 5 10 12`, “mean fluorescence intensity” read 50.9 a.u.
`2'F-ANA at 2 4 7 8 11 12 13` — result for “mean fluorescence intensity”: 563 a.u.
`2'F-ANA at 1 3 5 6 7 9 10 13 15`: “mean fluorescence intensity” 82.2 a.u.

Block 3
Target: RNA binding protein fox-1 homolog 2, RRM domain, GST-SBP tag (RBFOX2, Homo sapiens, UniProt O43251-10, residues 100-194)
Technique: RNA Bind-n-Seq
Form: RNA
Medium: in vitro
Tested at: 365 nM
Setting: natural RNA segment, single round, ends assumed
Reference: no-protein control
Direction: higher = stronger binding
Shared flanks, not repeated: GGGAGUUCUACAGUCCGACGAUC … UGGAAUUCUCGGGUGCCAA
For `AGCAAGAAGGAAAAGCCAAUGUCUGGUGUCUCUCCCCCCGCCCCUACCCUGCGCGCAUCUAUGUCUUGUUUGGAAUAUUGUCUCUUCAACCCCCUGUUCAUGUCCUUCUC`, “RBNS enrichment (R)” read 4.08.
For `GACUCCUGUACUAUUAACAAUCUGUAACCAAGCUAACUGUCUCAUCCAUGUGUUGAUUUCCUGUUUCCUCCUCCCCCGCCUCUUCCAGUUCAAAGGAGUCUGCAAUUGGA`, “RBNS enrichment (R)” read 1.19.
`UUGGUGUCAGGGUCCUGUGGAGUUGUGCCCCACACUGAGCUCUGUACAGUAUUGCUGCUCAUACACUGAGGAGGUGGGGUCGUCUUCUGAGGAUAUGAACUACACUGCUU` — result for “RBNS enrichment (R)”: 0.471.
`GUGCCAGGGCUGUGGGAGGGGCAAGCUACGGCCUGGGCUAGGUGAGCUGCCUCUGCCCCUGGGCAAGGAAGCGAGGCCCUCUGGGAGGAGGGUGCUUAGCUCCAGAGCAG` — result for “RBNS enrichment (R)”: 0.518.
`ACCCCAGGGGCUGGCUUUUUUAAAACUGGUUUUAUUUUAAUUUUUAUUAUAUUUUCAGUUUUUCCAUAAAGGAGCCAAUUCCAACUCUGUACCUGGUCUCUGCCCUUGCU`: “RBNS enrichment (R)” 0.593.
Under “RBNS enrichment (R)”, `GGAGGUUCCAGAAUGAGUUCUUCCUGACAGGUUGUCUUCACUGGGAGCGUGGGGCCCCCAGGCCCCACCAGCACCGUCCUCCCCUAAUGAGGGGCCCUGCCGAGGCAUCA` is recorded as 0.918.
Under “RBNS enrichment (R)”, `CUGGCAGAGGCGGCUCGGGCUGCCCAUCGUGUUUCUGCGGGGUUGAGGUGGGCUCCCUUCUUUGUAGAUGCCUUUCCUCUCGUAAUAACAACUCCUUGCCCCCAGGGCUC` is recorded as 0.863.
Under “RBNS enrichment (R)”, `AAGUUGCGGUUUACAGCACCUGCUUAUAACAGGAAGGGGCUGUAGAGGGGCUCGGUGACCAAGGUAAACCACACGCGCAAACCGAGGCAGUCAUCUACAAAUAACCCAUC` is recorded as 0.392.

Block 4
Target: Interferon regulatory factor 3, full length, phosphomimetic (IRF3, Homo sapiens, UniProt Q14653, residues 1-427, S386D/S396D/S398D/S402D/T404D/S405D)
Technique: protein-binding microarray
Form: double-stranded DNA, one strand shown
Medium: in vitro
Tested at: 2540 nM top
Setting: 60-bp whole probe
With: salmon DNA 0.4 mg/ml
Reference: random background probes
Direction: higher = stronger binding
Shared flanks, not repeated: GCCTAGCAC … GTCTTGATTCGCTTGACGCTGCTG
Construct (chain): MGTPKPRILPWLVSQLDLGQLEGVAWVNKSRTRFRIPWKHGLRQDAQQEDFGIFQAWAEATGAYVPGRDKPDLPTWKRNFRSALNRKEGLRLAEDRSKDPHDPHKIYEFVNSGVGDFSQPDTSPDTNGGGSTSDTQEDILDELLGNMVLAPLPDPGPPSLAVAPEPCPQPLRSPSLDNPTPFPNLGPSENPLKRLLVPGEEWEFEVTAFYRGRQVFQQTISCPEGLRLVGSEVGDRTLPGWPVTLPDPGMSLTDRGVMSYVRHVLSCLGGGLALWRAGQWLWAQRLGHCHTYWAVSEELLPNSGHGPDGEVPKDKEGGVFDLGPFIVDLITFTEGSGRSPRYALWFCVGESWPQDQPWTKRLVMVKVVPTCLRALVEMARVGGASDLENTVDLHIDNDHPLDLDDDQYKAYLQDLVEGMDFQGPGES
`TTAGGACTGCTTCTCCTTTAGTGCTAG` — result for “fitted relative affinity”: 0.0266 z-score.
Under “fitted relative affinity”, `GACGCTTTCGGTATCGGGACGTGCTAG` is recorded as 5.37 z-score.
For `TTAGGTCTCTGTCTCGGTTAGTGCTAG`, “fitted relative affinity” read 0.452 z-score.
`TCTTTTTGCTTTCTTTATGCGTGCTAG` — result for “fitted relative affinity”: 2.55 z-score.
`GGCGGTTTCGGTTTCGGGACGTGCTAG`: “fitted relative affinity” 10.9 z-score.
`TCATTCCTCTCACCTCGGACTGTGCTA`: “fitted relative affinity” 1.17 z-score.
`GACGATATCAGTATGGAGACGTGCTAG` — result for “fitted relative affinity”: 0.484 z-score.
`GACGATTGCAGACTGGAGACGTGCTAG` — result for “fitted relative affinity”: -0.0303 z-score.
`ATAGGACTGGGTTTCGGTTAGTGCTAG` — result for “fitted relative affinity”: 3.29 z-score.
`GACGGTTTCGACACTGGGGAAGTGCTA`: “fitted relative affinity” 3.35 z-score.
`TTAGGTTCCCTTGTCCTTTAGTGCTAG`: “fitted relative affinity” 2.58 z-score.
`GACGGACTGCCTTTCCTGACGTGCTAG`: “fitted relative affinity” 0.0368 z-score.
For `TTAGACTTCGGGTTTCGATTAGTGCTA`, “fitted relative affinity” read 1.26 z-score.
`TCAGTTCTCAGCTTGGGACTGTGCTAG`: “fitted relative affinity” 1.29 z-score.
For `TTAGGTTTCGGGTATAGGTTAGTGCTA`, “fitted relative affinity” read 3.72 z-score.
`TCAGTTCCCTATATAAGACTGTGCTAG` — result for “fitted relative affinity”: 3 z-score.
`TCAACTTTTATTTTCAGACTGTGCTAG`: “fitted relative affinity” 1.5 z-score.

Repeated from above (block 1):
The E-score of `ACTAAAAC` is reported as 0.0949.
`ACACTCAC` has an E-score of 0.0129.
`CATCATAG` has an E-score of 0.103.
With `CAGATTTC` the E-score was -0.00164.
With `CGCAAATC` the E-score was -0.0143.
`GTAAACTA` has an E-score of 0.203.
